Experimental data collected from several papers.
Every numbered part comes from another study and shows a few of its results, in no order. Several values in a cell are separate wells, animals, samples, runs or records. Substitutions count along the parent as printed.

Set 1
Target: CREB3L4, bZIP domain (human)
Technique: DHFR protein complementation
Matrix: yeast
Setting: single substitutions, most at no-binding floor
Reference: wild-type JUN-FOS pair
Direction: higher = stronger binding
Starting sequence: JUN, bZIP domain (human); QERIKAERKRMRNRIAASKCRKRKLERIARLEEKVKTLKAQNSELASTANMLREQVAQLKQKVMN; partner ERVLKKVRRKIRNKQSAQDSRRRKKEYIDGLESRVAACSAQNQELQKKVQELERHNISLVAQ
Change | binding fitness [natural log]
I28G | -1.39
V56T | -1.51
L52F | -1.47
A40S | -1.52
V35A | -1.42
N42H | -1.47
L38I | -1.5
E32A | -1.44
E33V | -1.43
A57G | -1.32
A40L | -1.45
L38R | -1.46
A46G | -1.29
T48P | -1.49

Set 2
Target: CCND2, cyclin fold, Cln2 fusion (human)
Technique: yeast growth competition, sequencing
Matrix: yeast
Setting: strong parent motif
Reference: not given
Direction: higher = stronger binding
Starting sequence: INSM1 docking peptide (human); PKAIRKLHFEDEV; partner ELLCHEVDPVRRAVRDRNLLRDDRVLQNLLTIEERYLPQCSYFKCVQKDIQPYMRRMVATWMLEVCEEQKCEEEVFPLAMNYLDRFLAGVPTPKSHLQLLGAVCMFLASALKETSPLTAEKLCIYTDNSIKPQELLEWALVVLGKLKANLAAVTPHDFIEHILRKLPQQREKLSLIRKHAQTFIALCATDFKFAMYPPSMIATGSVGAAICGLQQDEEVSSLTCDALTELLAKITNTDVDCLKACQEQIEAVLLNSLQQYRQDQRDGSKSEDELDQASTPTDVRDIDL
Change | normalised enrichment score
E12M | 2.19
K2D | 0.77
L7I | 1.76
L7K | 0.162
L7P | 0.107
A3T | 1.08
K2H | 1.7
E10F | 1.37
D11Q | 1.94
K2L | 1.31
A3L | 0.116
H8W | 1.19
E10K | 0.671
D11G | 1.49
D11Y | 1.09
E10I | 0.812
E10D | 1.96
F9K | -0.406
D11C | 1.78
I4W | 0.194
E10A | 1.25
F9M | 0.469
K2E | 0.88
A3C | 1.9
E10Q | 1.34

Set 3
Target: Histone acetyltransferase KAT6A, both winged helices, GST fusion (KAT6A, Homo sapiens, UniProt Q92794, residues 1-181)
Technique: protein binding microarray
Molecule type: double-stranded DNA, one strand shown
Matrix: in vitro
Tested at: not given
Setting: 8-mer, flanks averaged, mean of 2 arrays, mostly near background
Reference: not given
Direction: higher = stronger binding
Construct (chain): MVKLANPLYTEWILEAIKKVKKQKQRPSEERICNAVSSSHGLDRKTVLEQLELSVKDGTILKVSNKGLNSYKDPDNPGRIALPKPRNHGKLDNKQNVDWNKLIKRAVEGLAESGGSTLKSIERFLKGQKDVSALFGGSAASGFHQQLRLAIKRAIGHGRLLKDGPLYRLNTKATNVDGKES
Sequence | E-score
AAGAGCAA | -0.164
AGACGTTG | -0.033
CCCATCTA | -0.133
GCGAGAAC | 0.1
AAAATACG | 0.0068
ACTCCTCG | -0.153
ATAACCCC | -0.0899
AAAAACTG | -0.0959
GGTTTGTA | -0.0357
ACTACGCA | 0.0449
GAAAGATC | 0.00957
CAACAAAC | -0.0852
GTTAATAA | 0.00899
ACTTCGGA | -0.0148
ACGGATAC | 0.2
AGAAATAA | -0.116
TAGATTGA | 0.0928
AACACCGG | 0.221
ATGGCGAC | -0.0193
GCTTGTCC | 0.0855
ATTTTCAC | 0.0158
AAGTTGAC | -0.0489
ACTGGATG | -0.13
AATGAGGT | -0.111
CGTGGGAG | 0.00771

Set 4
Target: Interferon regulatory factor 5, full length, phosphomimetic (IRF5, Homo sapiens, UniProt Q13568-2, residues 1-514, S451D/S453D/S456D/S462D)
Technique: protein-binding microarray
Molecule type: double-stranded DNA, one strand shown
Matrix: in vitro
Tested at: 940 nM top
Setting: 60-bp whole probe
With: salmon DNA 0.4 mg/ml
Reference: random background probes
Direction: higher = stronger binding
Constant ends, left off below: GCCTAGCAC … GTCTTGATTCGCTTGACGCTGCTG
Sequence | fitted relative affinity
TTAGGTTTCCTTATCCTCTAGTGCTAG | 2.03 z-score
TTTCATTTTTTTTTTCATCAGTGCTAG | 6.55 z-score
TTAGGTTTCGACAGTGGGTTAGTGCTA | 7.9 z-score
GACGGACTGCTTTTCCTAACGTGCTAG | -0.397 z-score
TTAGGGCTCCTACTGCTTTAGTGCTAG | -0.388 z-score
GACGGTTTCCTTTCCCAGACGTGCTAG | 2.06 z-score
TTAGATATCAGTTACGATTAGTGCTAG | 0.157 z-score
TACGATTTCAGTATCGAGACGTGCTAG | 2.52 z-score
TTCGGTTTCGGTATCGGTTAGTGCTAG | 14.8 z-score
GACGGACTGCTCATCCTGACGTGCTAG | -0.434 z-score
TTAGGTATCGGTATCGGGTAGTGCTAG | 9.64 z-score
TCAGTCACCCATCTCAAACTGTGCTAG | 0.313 z-score
ATAGGTTCCCTTTTCCTTTAGTGCTAG | 0.775 z-score
ACCTATGTGTACCACTAGACGTGCTAG | -0.263 z-score
TTGTCTCTGTCCCTGTTTCTGTGCTAG | 3.14 z-score
TTAGGACTGGGTATCGGTAAGTGCTAG | 2.41 z-score
TTGTATCTGGGTTCCCCCCCGTGCTAG | 0.165 z-score
TTAGGTTCCGGTATCGGTTAGTGCTAG | 6.8 z-score
GACGGTAACGACTTTCGGGACGTGCTA | 0.55 z-score

Set 5
Target: ABI1, truncated, D143A, DHFR fusion (Arabidopsis thaliana)
Technique: DHFR PCA, deep sequencing
Matrix: yeast
Setting: methotrexate growth selection, single substitutions
With: (+)-ABA 710 µM
Reference: wild-type fitted maximum
Direction: higher = stronger binding
Starting sequence: PYL1, truncated, DHFR fusion (Arabidopsis thaliana); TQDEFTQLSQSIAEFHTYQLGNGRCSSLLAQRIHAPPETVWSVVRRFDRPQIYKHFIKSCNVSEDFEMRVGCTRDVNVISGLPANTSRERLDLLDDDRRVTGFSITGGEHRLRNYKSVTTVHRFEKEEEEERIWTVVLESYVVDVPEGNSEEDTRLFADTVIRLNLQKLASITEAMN
Change | relative binding score [%]
Q31Y | 77
E109A | 97.9
F15S | 85.7
A13D | 95.4
V145I | 98.9
Y115D | 3.33
V142N | 90.2
M176Q | 103
F56A | 54.3
G81T | 71.2

Set 6
Target: Sal-like protein 4, full length isoform A (SALL4, Homo sapiens, UniProt Q9UJQ4, residues 1-1053)
UniProt Q9UJQ4, sequence (whole entry, looked up): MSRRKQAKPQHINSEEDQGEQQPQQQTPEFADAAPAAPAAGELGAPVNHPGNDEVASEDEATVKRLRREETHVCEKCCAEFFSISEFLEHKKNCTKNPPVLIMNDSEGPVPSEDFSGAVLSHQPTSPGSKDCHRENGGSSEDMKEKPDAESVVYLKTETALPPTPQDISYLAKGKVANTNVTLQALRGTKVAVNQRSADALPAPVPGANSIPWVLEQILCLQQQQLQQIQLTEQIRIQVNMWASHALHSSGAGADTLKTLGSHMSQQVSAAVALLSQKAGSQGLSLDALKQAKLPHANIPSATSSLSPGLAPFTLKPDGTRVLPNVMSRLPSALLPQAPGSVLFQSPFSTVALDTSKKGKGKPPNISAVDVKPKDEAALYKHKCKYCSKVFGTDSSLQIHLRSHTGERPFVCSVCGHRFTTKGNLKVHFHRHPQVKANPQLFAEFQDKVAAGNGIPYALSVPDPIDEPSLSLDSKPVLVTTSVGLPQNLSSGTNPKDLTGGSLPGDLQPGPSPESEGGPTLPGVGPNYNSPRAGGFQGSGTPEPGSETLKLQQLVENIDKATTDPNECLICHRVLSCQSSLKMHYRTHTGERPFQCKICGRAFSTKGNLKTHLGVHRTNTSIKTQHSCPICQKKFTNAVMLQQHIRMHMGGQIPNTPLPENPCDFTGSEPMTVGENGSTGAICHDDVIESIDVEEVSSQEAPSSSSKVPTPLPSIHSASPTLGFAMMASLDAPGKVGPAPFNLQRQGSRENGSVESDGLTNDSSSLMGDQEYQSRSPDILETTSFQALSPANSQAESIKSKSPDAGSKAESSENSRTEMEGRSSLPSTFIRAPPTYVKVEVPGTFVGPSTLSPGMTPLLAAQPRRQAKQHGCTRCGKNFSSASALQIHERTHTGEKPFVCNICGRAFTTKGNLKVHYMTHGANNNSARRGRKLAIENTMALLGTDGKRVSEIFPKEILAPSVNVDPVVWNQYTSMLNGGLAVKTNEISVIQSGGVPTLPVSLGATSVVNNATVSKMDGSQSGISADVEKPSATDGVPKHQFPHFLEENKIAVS
Technique: universal PBM
Molecule type: double-stranded DNA, one strand shown
Matrix: in vitro
Tested at: 600 nM
Setting: 8-mer, flanks averaged, mean of replicates
Direction: higher = stronger binding
Sequence | E-score
GCAGACCC | -0.292
AGCAGCCT | -0.17
CATTTGAC | 0.132
AGTCAACT | -0.055
GGCTAAAA | 0.0698
ACCCCATC | -0.153
ATCGACTA | 0.0743
TACCAGCA | -0.0472
GGTAGGGA | -0.172
TGACTGAA | 0.0539
ACCCTGCG | -0.196
AGATCACC | -0.0421
ACTACCAG | -0.0807
ACTCCCGA | -0.117
AAAACATC | 0.201
AATACTTC | 0.262
GAAAGAGA | 0.0245
CCAAGCTC | -0.255
GGTCACAC | -0.243
AGGGGAAC | -0.266
CTGGACTA | -0.124
CATATAGC | 0.214
AAGGCAGT | 0.00873
ACATGACG | 0.0311
GAAGGGTC | -0.265

Single results of other studies
Molecule | target | test | test system | setting | scale | endpoint | value
PhoQ, residues 284 288 289 292 302 303 TASMAF | PhoP, residues 12 14 15 18 19 LWHCS (Escherichia coli, UniProt P23836) | Sort-seq, refers to: YFP reporter | E. coli | PhoQ-PhoP variant library, with: 10 µM Mg2+ | reference: high Mg2+ state, higher = stronger signaling | fold induction | 7.03 and 15.1

Some of these lines once more (set 2):
Change | normalised enrichment score
L7K | 0.162
D11Q | 1.94
F9M | 0.469
E10I | 0.812
E10K | 0.671
E10A | 1.25
D11C | 1.78
E10D | 1.96
K2H | 1.7
L7P | 0.107
E12M | 2.19
